Measured values collected from several papers.
Each line is one published result; not all experiments were run side by side. Numbers after ± are the reported error.

Structure (SMILES) = O=S(=O)(Nc1ccccc1)c1ccc(NC(=S)Nc2ccccc2)cc1; test system = female mouse, blood; setting = oral, 5 mg/kg daily, 14 days; quantity = haematocrit; value = 47%
Structure (SMILES) = c1ccc2c(c1)-c1ccc3ccc4cccc5cc-2c1c3c45; test system = fresh water; setting = 20 °C, S30-2 sampler, 30 µm; quantity = log K(PDMS-water); value = 5.54 ± 0.08
Structure (SMILES) = CN[C@H]1CC[C@@H](c2ccc(Cl)c(Cl)c2)c2ccccc21; test system = CD-1 mouse, male, plasma; setting = intraperitoneal, 30 mg/kg; quantity = Tmax; value = 60 min
Structure (SMILES) = COc1cc2c(Oc3ccc4[nH]c(C)cc4c3F)ccnc2cc1OCC1(N)CC1; test system = paediatric recurrent refractory sarcoma; setting = 12 mg; quantity = grade 3 Dizzy; value = 0%
Structure (SMILES) = Cn1cncc1-c1c(F)cncc1NC(=O)c1c(N)nn2cc(F)cnc12; test system = human patients; setting = oral, 220 mg once daily; quantity = grade ≥3 lymphocyte decrease incidence; value = 67%
Structure (SMILES) = Clc1ccc(Cl)c(-c2ccccc2Cl)c1; test system = fresh water; setting = 20 °C, SSP sampler, 100 µm; quantity = log K(PDMS-water); value = 4.91 ± 0.03
Structure (SMILES) = NC(=O)[C@H]1CCN(c2ncnc(N)c2F)C[C@@H]1N1CCC[C@@H](Nc2cc(Cl)cc(C(F)(F)F)c2)C1=O; test system = B-cell malignancy patients; setting = oral, 20.5 mg twice daily, dose; quantity = grade ≥3 bilirubin increase; value = 0%
Structure (SMILES) = CC(C)[C@@H]1NC(=O)CNC(=O)[C@H](CC(N)=O)NC(=O)[C@H](CCCNC(=N)N)NC(=O)[C@H](Cc2ccc(O)cc2)NC(=O)[C@H](C(C)C)NC(=O)[C@@H](NC(=O)[C@@H](NC(=O)[C@H](CC(N)=O)NC(=O)[C@H](Cc2c[nH]c3ccccc23)NC(=O)[C@H](C)NC(=O)[C@H](Cc2ccccc2)NC(=O)CN)C(C)C)CSSC[C@@H](C(=O)N[C@@H](Cc2cnc[nH]2)C(=O)N[C@@H](CCCNC(=N)N)C(=O)N[C@@H](CCCNC(=N)N)C(=O)N[C@@H](C)C(=O)N[C@@H](CC(N)=O)C(N)=O)NC(=O)[C@H](C(C)C)NC(=O)[C@H](CCCNC(=N)N)NC1=O; test system = ICR mouse, blood; setting = intramammary, 5 mg/kg, day 5, 3 d dosing; quantity = lymphocytes; value = 76.28 ± 0.6%
Structure (SMILES) = CCCC1CCC(C2CCC(c3ccc(F)c(F)c3)CC2)CC1 (stereo not shown); assay = measured: compound; test system = human pregnant women, male fetuses, cord serum; setting = dose not given, paired maternal-cord samples, mean; quantity = concentration; value = 0.6 ng/mL
Structure (SMILES) = CCc1ccc(CC/C=C/c2ccc3c(c2)C(=O)CC3)cc1; test system = Sprague-Dawley rat, female; setting = oral, 120 mg/kg/day, 14 days; quantity = CHCM; value = 335 g/L
Structure (SMILES) = CC(C)N(CCc1c[nH]c2cccc(OC(=O)CCCC(=O)O)c12)C(C)C.Cl; test system = male beagle dog, plasma; setting = intravenous, 1 mg/kg; quantity = half-life; value = 15.3 min
Structure (SMILES) = O=C(Nc1ccccc1)C1CCN(C(=O)Oc2cccnc2)CC1; assay = psychotropic effects VAS; test system = healthy women; setting = 100 mg; scale = baseline: pre-dose baseline, direction not given; quantity = change in Drowsy score; value = 3.1
Structure (SMILES) = NC(=Nc1ccccc1)NC(=O)c1nc(Cl)c(N)nc1N; target or system = Plasmodium falciparum; test system = 7G8; quantity = IC50; value = 10 µM
Structure (SMILES) = Cn1cc(-c2nc(N[C@@H]3CCCC[C@@H]3N)c(F)c3c2C(=O)NC3)cn1; assay = measured: gingival bleeding; test system = patients with relapsed or refractory AML; setting = oral, 60 mg once daily; quantity = hemorrhagic adverse events; value = 25%
Structure (SMILES) = CO[C@H]1C[C@@H]2CC[C@@H](C)[C@@](O)(O2)C(=O)C(=O)N2CCCC[C@H]2C(=O)O[C@H]([C@H](C)C[C@@H]2CC[C@@H](OC(=O)NCCOCCOCCOCCOCCOCCOCCOCCOCCC(=O)N3CCc4cc(Cn5nc(-c6ccc7oc(N)nc7c6)c6c(N)ncnc65)ccc4C3)[C@H](OC)C2)C[C@@H](O)[C@H](C)/C=C(\C)[C@@H](O)[C@@H](OC)C(=O)[C@H](C)C[C@H](C)/C=C/C=C/C=C/1C; test system = patients with advanced solid tumours; setting = intravenous, 16 mg weekly, any grade; quantity = dyspnoea incidence; value = 50%
Structure (SMILES) = CC[C@H](C)[C@H](NC(=O)[C@H](CCCNC(=N)N)NC(=O)[C@H](CCC(=O)O)NC(C)=O)C(=O)N[C@H]1CSSC[C@@H](C(=O)N[C@H](C(N)=O)[C@@H](C)O)NC(=O)[C@H](CCCNC(=N)N)NC(=O)[C@H](Cc2c[nH]cn2)NC(=O)[C@H](C)NC(=O)CNC(=O)[C@H](Cc2c[nH]c3ccccc23)NC(=O)[C@H](CC(=O)O)NC(=O)[C@H](CCC(N)=O)NC(=O)[C@H](Cc2c[nH]c3ccccc23)NC(=O)[C@H](C(C)C)NC1=O; assay = isocratic RP-HPLC, C18; test system = 32% acetonitrile, phosphate pH 7.4, 1% TFA; setting = 25 °C; quantity = log retention factor; value = -0.499
Structure (SMILES) = COc1ccc2c(c1OC)C(=O)OC2C1c2cc3c(cc2CCN1C)OCO3 (single isomer, unassigned; (+)); target or system = Plasmodium falciparum; test system = W2; quantity = IC50; value = 5.01 µM
Structure (SMILES) = COc1ccc2nc3cc(Cl)ccc3c(Nc3cc(CN4CCCC4)c(O)c(CN4CCCC4)c3)c2n1; test system = mouse, blood; setting = intraperitoneal, 14 mg/kg; quantity = haematocrit; value = 40%
Structure (SMILES) = C[C@@H]1OC(=O)NN=C1c1ccc(-c2ccc(F)cc2)c(C(F)(F)F)c1; assay = phase I trial, measured: alkaline phosphatase increased; test system = human patients; setting = 5 mg load, 0.25 mg daily, worst grade 1; quantity = patients with TEAE; value = 0%
Structure (SMILES) = CC[C@H]1[C@@H](O)[C@@H]2[C@H](CC[C@]3(C)[C@@H]([C@H](C)CCNC(=O)NS(=O)(=O)c4ccc(C(C)(C)C)cc4)CC[C@@H]23)[C@@]2(C)CC[C@@H](O)C[C@@H]12; test system = human; setting = dose not given, with oral contraceptive; quantity = subjects with TEAEs; value = 45.2%
Structure (SMILES) = C[C@H]1N=C(c2ccccc2F)c2cc(Br)ccc2-n2cnc(C(=O)O)c21; test system = mouse liver S9 fraction; setting = 10 µM, 2 h, glucuronidation; quantity = parent remaining; value = ~85%
Structure (SMILES) = COc1ncccc1-c1cnn2ccc(N3CCN(C(=O)OC(C)C)CC3)nc12; test system = mouse nerve ligation model, plasma; setting = oral, 3 mg/kg, 120 min after last dose, repeat dosing day 4; quantity = drug concentration; value = 610 nM
Structure (SMILES) = CC(C)=CC1C(C(=O)OC(C#N)c2cccc(Oc3ccccc3)c2)C1(C)C (stereo not shown); test system = pooled human liver microsomes; quantity = CLint; value = 1.32 mL/min/mg protein
Structure (SMILES) = O=C1Nc2cc3[nH]nc(-c4ccncc4)c3cc2CN1Cc1ccccc1; assay = CTCAE v4.03; test system = advanced solid tumour patients; setting = intravenous, 1.8 mg/kg, schedules 1/2; quantity = patients with decreased appetite; value = 100%
Structure (SMILES) = CC(C)C[C@@H]1NC(=O)[C@H](CCCCN)NC(=O)[C@H](CC(N)=O)NC(=O)[C@H](CCCNC(=N)N)NC(=O)[C@H]([C@@H](C)O)NC(=O)[C@@H]2CSSC[C@@H]3NC(=O)[C@H]([C@@H](C)O)NC(=O)CNC(=O)CNC(=O)[C@H](C(C)C)NC(=O)[C@@H]4CSSC[C@H](NC(=O)[C@H]([C@@H](C)O)NC(=O)[C@H](CSSC[C@H](NC(=O)[C@H](C(C)C)NC(=O)[C@@H]5CCCN5C1=O)C(=O)NCC(=O)N[C@@H](CCC(=O)O)C(=O)N[C@@H]([C@@H](C)O)C(=O)N4)NC(=O)CNC(=O)[C@@H]1CCCN1C(=O)[C@H]([C@@H](C)O)NC(=O)[C@H](CC(N)=O)NC3=O)C(=O)N[C@@H](CO)C(=O)N[C@@H](Cc1c[nH]c3ccccc13)C(=O)N1CCC[C@H]1C(=O)N[C@@H](C(C)C)C(=O)N2; assay = HPLC; test system = water; setting = 180 µM, 14 days, 37 °C, deamidation stability; quantity = remaining peptide; value = 98.8 ± 0.2%
Structure (SMILES) = c1ccc2c(c1)ccc1c3ccccc3ccc21; test system = fresh water; setting = 12 (unit not given), 20 °C, S100 sampler, 100 µm; quantity = log K(PDMS-water); value = 4.72 ± 0.01
Structure (SMILES) = COc1cccc2c1CCCC2CCCN1CCN(C2CCCCC2)CC1 (stereo not shown); test system = CD-1 mouse, male, plasma; setting = intraperitoneal, 1 mg/kg; quantity = Tmax; value = 30 min
Structure (SMILES) = CC[C@H](C)[C@H](NC(=O)[C@H](Cc1ccccc1)NC(=O)[C@H](CCC(=O)O)NC(=O)[C@H](CCCNC(=N)N)NC(=O)[C@H](C)NC(=O)[C@H](C)NC(=O)[C@H](CCC(N)=O)NC(=O)[C@H](CCC(=O)O)NC(=O)[C@H](CCC(=O)O)NC(=O)[C@H](CC(C)C)NC(=O)[C@H](Cc1ccc(O)cc1)NC(=O)[C@H](CO)NC(=O)[C@H](CO)NC(=O)[C@@H](NC(=O)[C@H](CC(=O)O)NC(=O)[C@H](CO)NC(=O)[C@@H](NC(=O)[C@H](Cc1ccccc1)NC(=O)[C@@H](NC(=O)CNC(=O)[C@H](CCC(=O)O)NC(=O)[C@H](C)NC(=O)CCc1cnc[nH]1)[C@@H](C)O)[C@@H](C)O)C(C)C)C(=O)N[C@@H](C)C(=O)N[C@@H](Cc1c[nH]c2ccccc12)C(=O)N[C@@H](CC(C)C)C(=O)N[C@H](C(=O)N[C@@H](CCCNC(=N)N)C(=O)NCC(=O)N[C@@H](CCCNC(=N)N)C(=O)N[C@@H](CCCCNC(=O)COCCOCCNC(=O)COCCOCCNC(=O)CC[C@H](NC(=O)CCCCCCCCCCCCCCCCC(=O)O)C(=O)O)C(=O)NCC(=O)NCC(=O)N[C@@H](CO)C(=O)N[C@@H](CCSC)C(=O)N[C@H](C(=O)N[C@@H](CCCCNc1c(NCCCCCN(O)C(=O)CCC(=O)NCCCCCN(O)C(=O)CCC(=O)NCCCCCN(O)C(C)=O)c(=O)c1=O)C(=O)O)C(C)C)C(C)C [zirconium-89 labelled]; assay = ex vivo gamma counting; test system = male Sprague-Dawley rats, bone marrow; setting = intravenous, 1 nmol, 24 h, mean of 3 animals; quantity = tissue uptake; value = 0.64 %ID/g

Repeated from above:
Structure (SMILES) = O=C(Nc1ccccc1)C1CCN(C(=O)Oc2cccnc2)CC1; assay = psychotropic effects VAS; test system = healthy women; setting = 100 mg; scale = baseline: pre-dose baseline, direction not given; quantity = change in Drowsy score; value = 3.1
Structure (SMILES) = Clc1ccc(Cl)c(-c2ccccc2Cl)c1; test system = fresh water; setting = 20 °C, SSP sampler, 100 µm; quantity = log K(PDMS-water); value = 4.91 ± 0.03
